Measured values collected from several papers.
Lines come from different studies, so protocols differ. Several values in a cell are separate wells, animals, samples, runs or records. Numbers after ± are the reported error.
PLCG2 residues 1-1195: 1-phosphatidylinositol 4,5-bisphosphate phosphodiesterase gamma-2, residues 1-1195 (PLCG2, Homo sapiens, UniProt P16885)
Chain of UniProt P16885 (1-1195, looked up): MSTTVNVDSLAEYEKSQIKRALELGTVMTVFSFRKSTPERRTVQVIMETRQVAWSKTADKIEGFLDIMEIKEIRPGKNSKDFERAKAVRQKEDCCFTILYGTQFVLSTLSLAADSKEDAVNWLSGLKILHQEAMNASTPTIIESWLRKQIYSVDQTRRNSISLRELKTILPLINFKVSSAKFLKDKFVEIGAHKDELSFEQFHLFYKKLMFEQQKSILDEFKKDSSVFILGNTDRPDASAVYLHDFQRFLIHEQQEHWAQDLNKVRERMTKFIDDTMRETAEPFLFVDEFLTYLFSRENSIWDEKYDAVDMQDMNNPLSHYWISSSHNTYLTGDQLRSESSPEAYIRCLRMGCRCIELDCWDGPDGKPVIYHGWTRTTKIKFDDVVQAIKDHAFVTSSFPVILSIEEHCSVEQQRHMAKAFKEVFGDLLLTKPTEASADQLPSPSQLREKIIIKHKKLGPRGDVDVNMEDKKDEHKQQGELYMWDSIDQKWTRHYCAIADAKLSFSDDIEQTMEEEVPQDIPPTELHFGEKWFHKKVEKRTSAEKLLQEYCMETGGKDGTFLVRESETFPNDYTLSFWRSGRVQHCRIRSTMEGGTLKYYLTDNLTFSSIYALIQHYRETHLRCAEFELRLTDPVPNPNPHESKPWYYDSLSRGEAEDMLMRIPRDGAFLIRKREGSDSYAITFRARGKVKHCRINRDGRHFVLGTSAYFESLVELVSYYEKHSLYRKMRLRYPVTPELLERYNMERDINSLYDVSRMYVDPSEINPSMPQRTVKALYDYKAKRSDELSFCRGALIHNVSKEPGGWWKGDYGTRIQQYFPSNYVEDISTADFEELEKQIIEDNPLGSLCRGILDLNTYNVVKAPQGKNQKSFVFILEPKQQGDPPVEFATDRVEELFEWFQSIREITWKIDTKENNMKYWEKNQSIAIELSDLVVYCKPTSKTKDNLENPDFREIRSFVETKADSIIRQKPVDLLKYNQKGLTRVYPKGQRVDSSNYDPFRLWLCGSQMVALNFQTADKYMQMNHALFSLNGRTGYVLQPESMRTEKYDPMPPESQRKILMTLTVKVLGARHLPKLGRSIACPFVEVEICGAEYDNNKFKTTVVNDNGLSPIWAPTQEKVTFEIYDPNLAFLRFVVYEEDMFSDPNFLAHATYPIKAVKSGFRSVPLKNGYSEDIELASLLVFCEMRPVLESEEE
ESR1: Estrogen receptor (ESR1, Homo sapiens, UniProt P03372)
Chain of UniProt P03372 (whole entry, looked up): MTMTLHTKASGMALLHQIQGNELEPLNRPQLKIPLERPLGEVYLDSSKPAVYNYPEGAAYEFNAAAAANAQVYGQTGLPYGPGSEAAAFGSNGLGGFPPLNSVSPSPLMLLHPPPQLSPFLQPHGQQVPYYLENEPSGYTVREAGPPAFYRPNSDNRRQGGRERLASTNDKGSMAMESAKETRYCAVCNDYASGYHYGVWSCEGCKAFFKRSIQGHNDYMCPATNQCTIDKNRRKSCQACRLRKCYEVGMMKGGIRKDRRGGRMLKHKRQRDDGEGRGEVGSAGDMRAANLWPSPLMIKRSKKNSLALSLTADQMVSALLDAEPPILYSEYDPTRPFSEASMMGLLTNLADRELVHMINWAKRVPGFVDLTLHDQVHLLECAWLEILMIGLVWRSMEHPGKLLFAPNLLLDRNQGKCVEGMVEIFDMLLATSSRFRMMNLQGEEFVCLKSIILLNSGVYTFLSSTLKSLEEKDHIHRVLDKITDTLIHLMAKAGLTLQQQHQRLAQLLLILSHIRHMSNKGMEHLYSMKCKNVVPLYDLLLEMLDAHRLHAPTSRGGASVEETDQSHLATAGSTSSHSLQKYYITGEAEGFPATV
MTNR1A: Melatonin receptor type 1A (MTNR1A, Homo sapiens, UniProt P48039)
Chain of UniProt P46089 (whole entry, unmodified, looked up): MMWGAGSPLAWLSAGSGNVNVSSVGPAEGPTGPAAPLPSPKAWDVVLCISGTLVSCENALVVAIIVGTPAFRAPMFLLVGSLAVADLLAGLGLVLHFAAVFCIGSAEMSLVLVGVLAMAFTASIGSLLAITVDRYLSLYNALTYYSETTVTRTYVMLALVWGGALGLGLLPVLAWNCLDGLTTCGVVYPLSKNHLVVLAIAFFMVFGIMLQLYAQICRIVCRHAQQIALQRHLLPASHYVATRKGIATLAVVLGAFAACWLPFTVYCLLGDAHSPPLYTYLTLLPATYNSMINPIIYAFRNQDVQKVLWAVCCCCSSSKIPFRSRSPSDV
Chain of UniProt P48039 (whole entry, looked up): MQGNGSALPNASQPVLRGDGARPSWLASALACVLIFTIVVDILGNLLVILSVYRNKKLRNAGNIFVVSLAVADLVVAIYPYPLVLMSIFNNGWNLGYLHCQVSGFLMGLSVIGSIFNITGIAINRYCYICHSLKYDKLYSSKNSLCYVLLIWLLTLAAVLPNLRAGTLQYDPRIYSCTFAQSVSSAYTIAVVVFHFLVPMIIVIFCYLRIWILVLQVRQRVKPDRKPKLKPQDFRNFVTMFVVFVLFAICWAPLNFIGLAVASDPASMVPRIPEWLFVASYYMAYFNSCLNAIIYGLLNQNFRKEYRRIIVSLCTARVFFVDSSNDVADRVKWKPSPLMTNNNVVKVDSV
Chain of UniProt Q16740 (whole entry, unmodified, looked up): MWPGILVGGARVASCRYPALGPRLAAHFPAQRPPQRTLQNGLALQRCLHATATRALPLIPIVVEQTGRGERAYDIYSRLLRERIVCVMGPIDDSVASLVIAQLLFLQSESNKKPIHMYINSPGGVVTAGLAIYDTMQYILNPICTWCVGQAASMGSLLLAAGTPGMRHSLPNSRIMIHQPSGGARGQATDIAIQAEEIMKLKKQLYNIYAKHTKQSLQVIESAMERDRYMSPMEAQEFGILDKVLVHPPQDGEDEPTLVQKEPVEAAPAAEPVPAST
Chain of UniProt Q7TS48 (whole entry, looked up): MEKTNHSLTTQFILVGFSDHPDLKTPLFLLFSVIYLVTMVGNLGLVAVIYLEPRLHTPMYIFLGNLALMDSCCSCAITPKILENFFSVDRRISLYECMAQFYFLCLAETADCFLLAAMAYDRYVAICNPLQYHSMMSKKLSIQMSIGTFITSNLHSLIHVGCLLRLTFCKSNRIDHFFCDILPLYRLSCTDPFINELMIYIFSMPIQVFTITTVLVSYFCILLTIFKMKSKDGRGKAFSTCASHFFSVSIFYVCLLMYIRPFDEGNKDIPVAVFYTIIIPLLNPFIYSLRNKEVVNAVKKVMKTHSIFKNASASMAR
Chain of UniProt A7T1N0 (whole entry, unmodified, looked up): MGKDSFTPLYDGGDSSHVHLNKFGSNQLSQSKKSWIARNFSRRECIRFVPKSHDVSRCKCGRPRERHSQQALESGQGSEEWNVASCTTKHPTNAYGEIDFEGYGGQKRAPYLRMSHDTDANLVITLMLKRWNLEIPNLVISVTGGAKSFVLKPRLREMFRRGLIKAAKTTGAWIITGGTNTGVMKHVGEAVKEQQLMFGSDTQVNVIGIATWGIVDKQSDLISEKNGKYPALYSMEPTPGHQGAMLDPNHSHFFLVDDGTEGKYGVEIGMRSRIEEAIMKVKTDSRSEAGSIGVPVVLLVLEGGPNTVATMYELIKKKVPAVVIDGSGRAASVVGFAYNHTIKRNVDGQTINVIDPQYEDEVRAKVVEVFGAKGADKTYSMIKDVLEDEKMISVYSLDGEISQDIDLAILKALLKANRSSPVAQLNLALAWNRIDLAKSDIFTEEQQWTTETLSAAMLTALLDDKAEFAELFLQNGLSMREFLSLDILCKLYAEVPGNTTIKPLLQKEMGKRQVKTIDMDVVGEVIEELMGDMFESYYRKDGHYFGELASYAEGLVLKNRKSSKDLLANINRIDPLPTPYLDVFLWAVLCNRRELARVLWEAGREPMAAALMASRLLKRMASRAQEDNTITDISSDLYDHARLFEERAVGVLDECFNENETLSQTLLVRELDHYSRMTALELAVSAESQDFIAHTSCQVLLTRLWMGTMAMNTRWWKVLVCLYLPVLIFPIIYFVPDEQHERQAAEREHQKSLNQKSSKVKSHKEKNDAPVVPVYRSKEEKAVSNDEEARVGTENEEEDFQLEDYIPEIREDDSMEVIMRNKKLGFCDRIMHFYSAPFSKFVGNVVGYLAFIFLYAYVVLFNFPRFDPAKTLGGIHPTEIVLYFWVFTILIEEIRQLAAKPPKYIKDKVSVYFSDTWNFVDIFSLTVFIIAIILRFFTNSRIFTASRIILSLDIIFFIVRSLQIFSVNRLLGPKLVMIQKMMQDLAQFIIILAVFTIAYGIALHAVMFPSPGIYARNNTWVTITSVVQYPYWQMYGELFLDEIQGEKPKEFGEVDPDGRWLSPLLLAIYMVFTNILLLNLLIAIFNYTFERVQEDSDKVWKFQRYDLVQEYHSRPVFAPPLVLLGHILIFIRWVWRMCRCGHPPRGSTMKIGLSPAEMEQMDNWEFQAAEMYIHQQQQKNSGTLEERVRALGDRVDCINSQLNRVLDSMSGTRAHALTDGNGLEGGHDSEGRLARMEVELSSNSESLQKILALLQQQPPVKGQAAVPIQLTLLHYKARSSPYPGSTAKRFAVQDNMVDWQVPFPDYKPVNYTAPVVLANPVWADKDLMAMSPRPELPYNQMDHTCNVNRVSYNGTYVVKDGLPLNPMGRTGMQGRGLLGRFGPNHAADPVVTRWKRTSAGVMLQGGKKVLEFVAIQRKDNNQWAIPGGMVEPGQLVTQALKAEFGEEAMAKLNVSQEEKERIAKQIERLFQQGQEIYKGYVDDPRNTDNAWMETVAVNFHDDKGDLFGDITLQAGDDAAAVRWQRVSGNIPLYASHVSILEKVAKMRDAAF
Chain of UniProt P35625 (whole entry, looked up): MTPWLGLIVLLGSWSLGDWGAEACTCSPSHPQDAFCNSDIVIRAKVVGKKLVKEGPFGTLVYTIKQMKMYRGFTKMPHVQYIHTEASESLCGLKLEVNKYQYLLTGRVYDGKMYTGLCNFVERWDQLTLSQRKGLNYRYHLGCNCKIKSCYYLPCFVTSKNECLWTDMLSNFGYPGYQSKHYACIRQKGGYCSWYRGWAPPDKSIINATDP

CC(=O)N(C)Cc1cccc(-c2cc3c(c(C(F)(F)F)c2)CCCC3N(C)C(=O)COC[C@@H]2CCNC[C@@H]2F)c1 (mixture of isomers)  EC50 (Translation initiation factor eIF2B subunit beta/Translation initiation factor eIF2B subunit delta, with phospho-eIF2α NTD (Homo sapiens, UniProt P49770+Q9UI10); phospho-eIF2α NTD dissociation, BLI): 7900 nM
CCCn1c(=O)c2cc(F)ccc2n2c(=S)[nH]nc12  EC50 (PLCG2 residues 1-1195; enzyme activity, activator; lipid vesicles; 15 min preincubation, together with: XY-69 substrate 0.5 µM): 27000 nM
COc1cc(C2C(NC(=O)c3ccc(NC(=O)OC(C)(C)C)cc3)(C(=O)O)C(c3ccc(OC(=O)c4cccs4)c(OC)c3)C2(NC(=O)c2ccc(NC(=O)OC(C)(C)C)cc2)C(=O)O)ccc1OC(=O)c1cccs1 (stereo not drawn)  EC50 (GLP1R (Homo sapiens, UniProt P43220, K202A); cAMP, agonist): 45.7 nM
O=C(NC[C@@H](Cc1ccc(F)cc1)N1CCC(O)(C(F)(F)F)CC1)C1(c2ccc(Cl)cc2)CCCC1  EC50 (TRPA1 (Homo sapiens, UniProt O75762, M912L)): 24 nM
Nc1ncnc2c1ncn2[C@@H]1O[C@H](COP(=O)(O)OP(=O)(O)OC[C@H]2OC(O)[C@H](O)[C@@H]2O)[C@@H](O)[C@H]1OP(=O)(O)O (stereo partly drawn)  EC50 (TRPM2 (Nematostella vectensis, UniProt A7T1N0, E444C); agonist): 160 ± 10 nM
CCc1cc(O)cc2c(/C=N/NC(=N)NCCc3ccc(Cl)cc3)c[nH]c12  EC50 (RXFP4 (Homo sapiens, UniProt Q8TDU9, L118A/V122A); agonist): 3.8 nM
CC[C@H]([C@H](C)c1ccc(O)cc1)[C@@H](CC)c1ccc(O)cc1  EC50 (ESR1; reporter gene, luciferase reporter (3xERE); 293T; 24 h): 2.15 nM
COc1ccc2[nH]c(-c3cccc4ccccc34)c(CCNC(=O)CI)c2n1  EC50 (MTNR1A; cAMP, agonist, TR-FRET): 3310 nM
Cc1cccc2[n+]1[Rh-3]13([c]4ccccc4-c4ccc5ccc(Cl)cc5[n+]41)([c]1ccccc1-c1ccc4ccc(Cl)cc4[n+]13)[n+]1c(C)cccc1-2.F[P-](F)(F)(F)(F)F  EC50 (Cyclin-dependent kinase 9, with cyclin T1 (CDK9, Homo sapiens, UniProt P50750); enzyme activity): 125 ± 8.4 nM
COc1cc(I)c(Cc2cc(OC)c(OC)cc2CC(=O)OC(C)(C)C)cc1OC  EC50 (MTNR1A; GTPγS binding, agonist, radiometric; cell membranes): 9330 nM
CCCCCCCC/C=C\CCCCCCCC(=O)NCCO  EC50 (Trpv1 (Mus musculus, UniProt Q704Y3, S513T); ion current, agonist, whole-cell patch clamp; 24 °C, S513T, +80 mV): 740 ± 140 nM
CC(C)Oc1cc(Cl)ccc1CNc1cc(-c2ccccc2)nc2ncnn12  EC50 (GPR3 (Homo sapiens, UniProt P46089, L136A); cAMP level, agonist): 3020 nM and 2570 nM and 1820 nM and 3310 nM
O=C(Nn1c(-c2cccc(Cl)c2)nc2ccccc2c1=O)c1ccccc1  EC50 (TRPM channel TRPM_PZQ (Schistosoma mansoni, UniProt A0A5K4F0X5); whole-cell inward current, activator, automated patch clamp; HEK293): 110 ± 20 nM
CC[C@H](C)[C@H]1C(=O)N(Cc2cc3ccccc3c3ccccc23)C[C@@H]2N(C(=O)NCCCC(F)(F)F)CCC(=O)N12  EC50 (CLPP (Homo sapiens, UniProt Q16740, H116Y); activator): 10400 ± 2300 nM
CC1=NC(C)C(C)S1 (stereo not drawn)  EC50 (Olfactory receptor 5K16 (Or5k16, Mus musculus, UniProt Q7TS48); cAMP, agonist; HEK293 transfected with Or5k16): 361000 ± 41500 nM
Oc1ccc(C2COc3cc(O)ccc3C2)cc1 (racemic)  EC50 (ESR1; array formation, agonist; ERα-GFP PRL-HeLa; 1 h): 35.3 nM
Cc1cc(C)c(S(=O)(=O)Nc2cccc(C(F)(F)F)c2)c(C)c1  EC50 (PLCG2 residues 1-1195; enzyme activity, activator; lipid vesicles; 15 min preincubation, together with: XY-69 substrate 0.5 µM): 73000 nM
CC(C)(C(=O)N1CCC(Nc2nc3c(c(=O)[nH]2)CCCC3)CC1)c1ccc(Cl)cc1  EC50 (MRGPRD, part with Gi1 (Homo sapiens, UniProt Q8TDS7); Gi1 dissociation, agonist, BRET2): 10.2 nM
Cn1c(=O)[nH]c(=O)c2c1nc(CN1CCN(c3cccc(Cl)c3)CC1)n2Cc1cccc(Cl)c1  EC50 (PLCG2 residues 1-1195; enzyme activity, activator; lipid vesicles; 15 min preincubation, together with: XY-69 substrate 0.5 µM): 21000 nM
Cn1c(=O)n(C2CCC(=O)NC2=O)c2ccc(C3CCN(CC(=O)Nc4cccc(CS(=O)(=O)N5CC[C@H](Nc6cccc(-c7sc(C(=O)O)c(OCC(=O)O)c7Cl)c6)CC5(C)C)c4)CC3)cc21 (stereo partly drawn)  EC50 (PTPN7 (Homo sapiens, UniProt P35236); phosphatase activity; together with: DiFMUP substrate): > 10000 nM
CC(=O)N[C@@H]1[C@@H](O[C@@H]2O[C@H](C(=O)O)[C@@H](O[C@@H]3O[C@H](COS(=O)(=O)O)[C@@H](OS(=O)(=O)O)[C@H](O[C@@H]4O[C@H](C(=O)O)[C@@H](O[C@@H]5O[C@H](COS(=O)(=O)O)[C@@H](OS(=O)(=O)O)[C@H](O[C@@H]6O[C@H](C(=O)O)[C@@H](OS(=O)(=O)O)[C@H](OS(=O)(=O)O)[C@H]6OS(=O)(=O)O)[C@H]5NC(C)=O)[C@H](OS(=O)(=O)O)[C@H]4OS(=O)(=O)O)[C@H]3NC(C)=O)[C@H](OS(=O)(=O)O)[C@H]2OS(=O)(=O)O)[C@H](OS(=O)(=O)O)[C@@H](COS(=O)(=O)O)O[C@H]1N=[N+]=[N-]  EC50 (Metalloproteinase inhibitor 3 (Homo sapiens, UniProt P35625); probe displacement, FP competition; protein 67 nM, together with: TAMRA-labelled sHA tetramer probe): 1650 ± 119 nM
